Measurements pooled from the literature.
Compare with care: the assays were run in different laboratories. “And” joins repeats or separate records; there may be more than shown. Numbers after ± are the reported error. In brackets after ≈: the same amount, converted by molar mass.

SMILES	test	system	setting	how to read	endpoint	result
O=c1c(O)c(-c2ccc(O[C@@H]3O[C@H](CO)[C@@H](O)[C@H](O)[C@H]3O)c(O)c2)oc2cc(O)cc(O)c12	Cu2+ reduction, CUPRAC	–	30 µg/mL	–	absorbance	0.519 ± 0.046
[131I-].[Na+]	ATA response criteria	human, papillary thyroid cancer, nodal metastases	3700 MBq	–	structural incomplete response	6.9%
C=CC[C@@H]1c2ccc(OC)c(OC)c2CN2CCc3cc4c(cc3[C@H]12)OCO4	–	P2rx7 A312V/A312V mouse, S. aureus wound infection	dose not given, day 0	reference: day 0	relative wound size	1
Cc1cn(-c2cc(NC(=O)c3ccc(C)c(Nc4nccc(-c5cccnc5)n4)c3)cc(C(F)(F)F)c2)cn1	–	human patients	dose not given, 12 to 6 months, unit not given	reference: placebo	ADAS-Cog maze errors change	0
CCCCCCCCCN(C)C	RT-S9 substrate depletion	rainbow trout	11 °C, non-shaken incubation	–	depletion rate constant	0.016 min⁻¹
CCSc1nc2ccccc2n1Cc1nnc(-c2ccccc2Cl)o1	relaxation, calcium antagonist	isolated rabbit jejunum	with: 80 mM K+ contraction	–	EC50	0.44 ± 0.02 µg/mL (≈ 1.19 µM)
Clc1cc2c(cc1Cl)Oc1cc(Cl)c(Cl)cc1O2	untargeted metabolomics	Sprague-Dawley rat, female, serum	dose not given	reference: vehicle	number of changed metabolites	183
CNC(=O)CC1C(=O)N(C2CCN(C3CCC(C(C)C)CC3)CC2)c2ccccc21 (centres unmarked)	–	conscious Sprague-Dawley rat	intravenous bolus, 100 nmol/kg	–	mean arterial pressure change	decreased
c1csc(-c2ccc(-c3cccs3)s2)c1	–	C57BL/6J mouse, diet-induced obese	intraperitoneal, 5 mg/kg daily, 336 h	–	liver to body weight ratio	0.0392 ± 0.00459
Oc1ccc(N=Nc2ccc(-c3nc4ccccc4s3)cc2)cc1CN(Cc1ccccn1)Cc1ccccn1	ABTS radical scavenging	–	unit not given	reference: Trolox	TEAC	> 2
C[C@]1(CO)Cc2ncn(-c3ccc(C#N)c(Cl)c3)c2C(=O)O1	aldosterone synthesis, inhibitor, item: sodium	healthy Japanese adults, urine	80 mg, 0-24 h at steady state, multiple rising dose	–	urinary excretion	126 mmol
Cc1c(C)c2c(c(C)c1O)CCC(C)(C(=O)O)O2 (centres unmarked)	Fe3+ reduction, ferricyanide reduction	–	30 µg/mL	–	absorbance	1.26 ± 0.032
Cc1n[nH]cc1-c1cc2nc([C@@H]3CC4CCN3CC4)[nH]c(=O)c2s1	–	mouse COLO 205 xenograft	oral, 20 mg/kg twice daily, 7 days after dosing end, 28 days	–	tumour volume	884 ± 289 mm3
CN1CCN(S(=O)(=O)c2cc([N+](=O)[O-])ccc2N(CCOS(C)(=O)=O)CCOS(C)(=O)=O)CC1	–	NSG mice, sample CG PDX	intraperitoneal, 25 mg/kg weekly x3	reference: vehicle	EFS delay (T-C)	26.6 days
CCSc1nc2ccccc2n1Cc1nnc(-c2ccc(F)cc2)o1	relaxation	isolated rabbit jejunum	spontaneous contractions	–	EC50	0.28 ± 0.01 µg/mL (≈ 0.79 µM)
C[C@H]1O[C@@H](O[C@H]2CC[C@@]3(C)[C@@H](CC[C@]4(C)[C@@H]3C=C[C@]35OC[C@@]6(CCC(C)(C)C[C@H]63)[C@@H](O)C[C@]54C)[C@]2(C)CO)[C@H](O)[C@@H](O[C@@H]2O[C@H](CO)[C@@H](O)[C@H](O)[C@H]2O)[C@H]1O	–	mouse, pair-fed, hepatic SIRT1 knockdown	dose not given, high dose	–	liver to body weight ratio	3.32% and 3.97% and 3.64% and 2.73% and 3.88%
C=CCNc1c(O)cc2c(O)c1C[C@@H](C)C[C@H](OC)[C@H](O)[C@@H](C)/C=C(\C)[C@H](OC(N)=O)[C@@H](OC)/C=C\C=C(/C)C(=O)N2	–	human	dose not given	–	partial response duration	2.25 years
CC[C@H](C)[C@@H]1NC(=O)[C@@H]2CCCN2C(=O)[C@H](CC(C)C)NC(=O)[C@H](CC(C)C)NC(=O)CNC(=O)[C@@H](NC(=O)[C@@H](NC(=O)[C@H](CC(=O)O)NC(=O)CNC(=O)[C@@H](NC(=O)[C@H](C)NC(=O)CNC(=O)[C@H](CCCCN)NC(=O)[C@H](CC(C)C)NC(=O)[C@H](CC(C)C)NC(=O)[C@H](CCCCN)NC(=O)CNC(=O)[C@@H](NC(=O)[C@@H](N)CC(C)C)C(C)C)C(C)C)C(C)C)CSSC[C@@H](C(=O)O)NC1=O	RNA-seq, item: Klk2-ps mRNA	mouse traumatic brain injury, frontal cortex and hippocampus	dose not given	reference: TBI plus compound vs TBI	log2 fold change	-4.64
CCSc1nc2ccccc2n1Cc1nnc(-c2ccc(OC)c(OC)c2)o1	relaxation	isolated rabbit jejunum	spontaneous contractions	–	EC50	0.22 ± 0.01 µg/mL (≈ 0.555 µM)
CCCCC1(CCCC)CN(c2ccccc2)c2cc(SC)c(OCC(=O)N[C@@H](C(=O)NCC(=O)O)c3ccccc3)cc2S(=O)(=O)C1	item: HDL cholesterol	human, serum	20 mg once daily, day 14	–	serum HDL-C	53.8 mg/dL
Oc1ccc(Cc2ccc(O)cc2)cc1	ABTS radical	–	300 µg/mL	–	radical scavenging	81.3 ± 2.29%
CCSc1nc2ccccc2n1Cc1nnc(-c2ccc(O)cc2)o1	relaxation, calcium antagonist	isolated rabbit jejunum	with: 80 mM K+ contraction	–	EC50	0.28 ± 0.09 µg/mL (≈ 0.795 µM)
CCN1[C@@H](C(=O)NC23CCC(C(=O)O)(CC2)CC3)[C@H](c2cccc(Cl)c2F)[C@]2(C(=O)Nc3cc(Cl)ccc32)C12CCCCC2	–	patients with advanced solid tumours	100 mg, 24 h after dose	reference: before dosing	serum MIC-1 (GDF-15) level	increased

Some of these lines once more:
SMILES	test	system	setting	how to read	endpoint	result
C=CC[C@@H]1c2ccc(OC)c(OC)c2CN2CCc3cc4c(cc3[C@H]12)OCO4	–	P2rx7 A312V/A312V mouse, S. aureus wound infection	dose not given, day 0	reference: day 0	relative wound size	1
Cc1cn(-c2cc(NC(=O)c3ccc(C)c(Nc4nccc(-c5cccnc5)n4)c3)cc(C(F)(F)F)c2)cn1	–	human patients	dose not given, 12 to 6 months, unit not given	reference: placebo	ADAS-Cog maze errors change	0
